Results gathered from unrelated publications.
Numbered parts are unrelated; each lists some results of a single study.

Sample 1
Target: RNA binding protein fox-1 homolog 2, RRM domain, GST-SBP tag (RBFOX2, Homo sapiens, UniProt O43251-10, residues 100-194)
Method: RNA Bind-n-Seq
Molecule type: RNA
Medium: in vitro
Concentration: 365 nM
Notes: natural RNA segment, single round, ends assumed
Relative to: no-protein control
Direction: higher = stronger binding
Constant ends, left off below: GGGAGUUCUACAGUCCGACGAUC … UGGAAUUCUCGGGUGCCAA
Strand | RBNS enrichment (R)
CGUGCUCCAGCCACCCCUGAGCUGAGGCUCCCAUUGUCUCCAUCAGAGCCUGCAUGUGUAUGCCGUCCUCCCCUGGUCCGGUGUUUGUGUUCCCCACCCCUCACAGACUG | 4.91
UAGUCCAGCCCUCUCGCAAUGGCUUGUGACUCACAGGAUUGCACCAUCCCCACUGCUAACUUGGGGCUGGGGCCUCCCUUUCACAGAUACCUUGGGUUUGUGCAUGUUUU | 4.85
CUGCAUCAAGAUAGCACCCCUUUGUGGGAGGCCCUGAGUAUCUUCUCUUCCUCUACUGCCUAACUGUUGGUGGGCUGUAUCAUUCAAUAAGAUCACUUCAUUUUCAACUU | 0.421
GAAAUUCCUCUUUAAAUGAACAAGUAACCACAUCUCAGGCGGCAGUGAAGUCCAGAUAGUUUUGCAGAUUGUUUUGCUACUUUUUCAUAUGGUAUAUGUUUCUGAUUUUU | 0.58
GGGCUCCUCCAGGCCAGGGCCCUACACAAGAACUGUCCCCCAGCUCUGCUAUCCCCAUGGCCAUGAAGGCUCCCUACCCCCAGAUGCCCACUCUCUCCACCUUUAUUUGC | 0.645
AGUCCCUUGUCCAUGCUGCACUGGGGCAGGCCGGUUGUUUGUGGUUUGUCCUACCAGCCACAGCUCCAUAGACAGCAGCUGGCAGUAGAGCAAAAGUUGGGGAGAGGAUU | 1.64
CCUCAAACCAGCUAGUCCUGGACAAGAUGUCUCUUCAGUAUCUCUGCUAUUGGGUUCAGAUGUGUCUAGGGGAACAAAGAAAAAUUCAUUAACAAACAUUAGCUGCUCCA | 0.441
GCUAAUUUCAGCUAAGCCUUCAUCAUAAUUUGUUCCCUCAGUAAUAGGAGAAAUAUAAAUACAGUAAGUUUAGAUUAUUGAAUUGGUGCUUGAAAUUUAUUGGUUUUGUU | 1.09

Sample 2
Target: PABPC1L2, full length, GST fusion (mouse, UniProt A0ABA7IW68)
Method: RNAcompete
Molecule type: RNA
Medium: in vitro
Concentration: 20 nM
Notes: 7-mer, probes averaged, single round
Relative to: mean of 7-mers
Direction: higher = stronger binding
Target sequence (chain): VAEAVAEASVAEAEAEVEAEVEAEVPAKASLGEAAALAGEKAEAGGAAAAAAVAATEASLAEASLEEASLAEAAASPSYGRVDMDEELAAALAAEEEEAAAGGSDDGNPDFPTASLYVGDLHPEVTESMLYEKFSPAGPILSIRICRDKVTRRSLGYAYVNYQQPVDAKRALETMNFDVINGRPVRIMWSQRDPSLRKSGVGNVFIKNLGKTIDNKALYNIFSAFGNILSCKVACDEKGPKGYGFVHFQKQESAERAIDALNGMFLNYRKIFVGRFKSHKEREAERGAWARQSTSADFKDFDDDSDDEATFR
Strand | 7-mer Z-score
GCAAACG | 0.274
UAUCAUA | -0.0409
GCGUAUU | -0.139
UCAGGUC | -0.0935
CCAACAC | -0.242
GCGAUCA | -0.0989
GGACGGA | 0.517
UUCUUGA | -0.358
CCCCCGA | -0.402
CAACAAG | 0.0424
CACAGUU | -0.3
CUGACUC | -0.251
ACGAGCG | 0.206
ACUCCAC | -0.101
UCCUACU | -0.248
CGCAGCA | -0.251
AGCAAUC | 0.066
CAUGCUG | -0.0953
CUUAAGG | -0.108
UGUGGGG | 0.269
ACGUGGG | 0.207

Sample 3
Target: Interferon regulatory factor 7, full length, phosphomimetic (IRF7, Homo sapiens, UniProt Q92985, residues 1-503, S471D/S472D/S475D/S476D/S477D/S483D/S484D/S487D)
UniProt Q92985, sequence (whole entry, unmodified, looked up): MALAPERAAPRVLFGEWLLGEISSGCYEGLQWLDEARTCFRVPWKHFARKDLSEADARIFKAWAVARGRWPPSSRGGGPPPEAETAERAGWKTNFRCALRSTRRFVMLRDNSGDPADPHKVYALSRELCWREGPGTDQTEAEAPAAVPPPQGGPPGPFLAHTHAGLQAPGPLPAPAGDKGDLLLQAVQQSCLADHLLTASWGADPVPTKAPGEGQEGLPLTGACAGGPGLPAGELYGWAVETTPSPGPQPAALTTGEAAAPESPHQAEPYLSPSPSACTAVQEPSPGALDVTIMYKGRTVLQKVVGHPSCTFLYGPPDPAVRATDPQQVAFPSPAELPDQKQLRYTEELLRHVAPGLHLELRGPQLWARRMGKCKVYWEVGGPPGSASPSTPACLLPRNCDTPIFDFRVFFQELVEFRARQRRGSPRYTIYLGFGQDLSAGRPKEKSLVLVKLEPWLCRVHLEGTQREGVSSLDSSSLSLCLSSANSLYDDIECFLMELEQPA
Method: protein-binding microarray
Molecule type: double-stranded DNA, one strand shown
Medium: in vitro
Concentration: 2200 nM top
Notes: 60-bp whole probe
Together with: salmon DNA 0.4 mg/ml
Relative to: random background probes
Direction: higher = stronger binding
Constant ends, left off below: GCCTAGCAC … GTCTTGATTCGCTTGACGCTGCTG
Strand | fitted relative affinity [z-score]
CAACCAATCATTTTTGCTTAGTGCTAG | 1.07
GACGGTATCGACTTTCCGGACGTGCTA | 1.41
TTAGGTTCCGGTTTCGGGTAGTGCTAG | 6.84
TTAGATTCCAGTTTCGGTTAGTGCTAG | 8.75
TTAGGGATCGGTTTCGGTTAGTGCTAG | 5.64
TCTAATCTCACTCTGTCCCTGTGCTAG | 1.7
GACGTACTGAGACTGGAGACGTGCTAG | 0.14
TCAATCTTATGATATATAACTGTGCTA | 0.00873
CTGATTTCCACTTTCTTAATGTGCTAG | 4.15
ACTCTTCTTTTTTTTCTTTAGTGCTAG | 2.48
TTTGGTATCGGGTTTCGGTTAGTGCTA | 4.67
TTAGGTTTCGTTATCCTTTAGTGCTAG | 7.34
TTAGGTTCTCTTTTCCTTTAGTGCTAG | 2.43
ATGAAATGCCACACACACACGTGCTAG | 0.398
GACGAACTGAGTATCGAGAGGTGCTAG | -0.327
TCAGGTATCGACACTGGGTTAGTGCTA | 0.378
TTAGGTTTCCTACTTCTTTAGTGCTAG | 1.33
GACGATTTTGGGACTGGAGACGTGCTA | 0.0446
TTAGGTATCGGACGGGGTTAGTGCTAG | -0.0867

Sample 4
Target: Histone acetyltransferase KAT6A, winged helix 1, GST fusion (KAT6A, Homo sapiens, UniProt Q92794, residues 1-85)
Method: protein binding microarray
Molecule type: double-stranded DNA, one strand shown
Medium: in vitro
Concentration: not given
Notes: 8-mer, flanks averaged, mean of 2 arrays, mostly near background
Relative to: not given
Direction: higher = stronger binding
Target sequence (chain): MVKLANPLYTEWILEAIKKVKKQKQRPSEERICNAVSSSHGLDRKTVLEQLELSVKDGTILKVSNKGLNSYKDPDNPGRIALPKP
Strand | E-score
GCCTCAAA | -0.0365
AACTAATG | -0.178
GGACTTTA | 0.0153
AAAAGGGA | -0.27
GACTCCTA | -0.126
AGGAACCG | -0.00541
ACTCTCAC | -0.0411
CAAGAATG | -0.24
ACTATTCA | -0.183
CTCACCAG | -0.266
CGAGTGTA | 0.0371
ATCAAACA | -0.293
ACTCGATC | 0.0397
AAATGGTG | -0.132
CGCCATGA | 0.108
AAGAAGGT | -0.0821
GTTGAAGA | -0.11
CAGATTCA | -0.32
CGACATGA | 0.0151

Sample 5
Target: Prothrombin, mature alpha-thrombin (F2, Homo sapiens, UniProt P00734)
Method: aptamer microarray, sandwich
Molecule type: DNA with 2'F-ANA
Medium: in vitro
Concentration: 200 nM
Notes: whole 15-mer aptamer, many near background
Together with: Cy3 exosite-II aptamer, 400 nM
Direction: higher = stronger binding
Strand: GGTTGGTGTGGTTGG
Modification | mean fluorescence intensity [a.u.]
2'F-ANA at 2 4 5 6 10 12 | 53.2
2'F-ANA at 3 5 6 7 10 12 13 14 | 50.3
2'F-ANA at 1 3 8 9 10 11 13 | 81.4
2'F-ANA at 5 6 9 11 12 13 | 89.6
2'F-ANA at 2 4 5 6 11 12 13 15 | 73
2'F-ANA at 1 3 6 8 11 13 15 | 226
2'F-ANA at 2 3 4 5 6 7 8 13 14 15 | 77.2
2'F-ANA at 1 3 4 5 6 8 9 12 | 125
2'F-ANA at 1 4 5 6 7 10 12 15 | 46.1
2'F-ANA at 2 3 5 7 8 10 14 | 49.4
2'F-ANA at 1 4 12 14 | 73.8
2'F-ANA at 1 2 5 6 7 8 9 11 | 70.7
2'F-ANA at 2 4 6 10 11 12 13 14 | 73
2'F-ANA at 1 2 8 12 13 15 | 362
2'F-ANA at 1 3 5 8 9 11 13 | 71.3
2'F-ANA at 4 10 11 12 15 | 120
2'F-ANA at 3 4 5 7 9 10 12 14 | 48.8
2'F-ANA at 1 2 3 8 9 10 11 | 62.6
2'F-ANA at 1 2 6 7 8 10 12 13 15 | 65.5
2'F-ANA at 1 4 6 7 12 | 259
2'F-ANA at 1 2 3 4 8 9 10 11 | 57.5
2'F-ANA at 4 5 7 8 9 10 11 12 | 50

Excerpt of the above (sample 2):
Strand | 7-mer Z-score
UUCUUGA | -0.358
CCCCCGA | -0.402
UAUCAUA | -0.0409
CAACAAG | 0.0424
ACGUGGG | 0.207
CUGACUC | -0.251
GGACGGA | 0.517
UCCUACU | -0.248
ACUCCAC | -0.101
CAUGCUG | -0.0953
GCGUAUU | -0.139
GCAAACG | 0.274
ACGAGCG | 0.206
CCAACAC | -0.242
UCAGGUC | -0.0935
